# Literature values that unrelated publications cite.
# Each line is one published result; not all experiments were run side by side. ± marks the error that the study gave.
# Chain of UniProt Q969S8 (whole entry, looked up): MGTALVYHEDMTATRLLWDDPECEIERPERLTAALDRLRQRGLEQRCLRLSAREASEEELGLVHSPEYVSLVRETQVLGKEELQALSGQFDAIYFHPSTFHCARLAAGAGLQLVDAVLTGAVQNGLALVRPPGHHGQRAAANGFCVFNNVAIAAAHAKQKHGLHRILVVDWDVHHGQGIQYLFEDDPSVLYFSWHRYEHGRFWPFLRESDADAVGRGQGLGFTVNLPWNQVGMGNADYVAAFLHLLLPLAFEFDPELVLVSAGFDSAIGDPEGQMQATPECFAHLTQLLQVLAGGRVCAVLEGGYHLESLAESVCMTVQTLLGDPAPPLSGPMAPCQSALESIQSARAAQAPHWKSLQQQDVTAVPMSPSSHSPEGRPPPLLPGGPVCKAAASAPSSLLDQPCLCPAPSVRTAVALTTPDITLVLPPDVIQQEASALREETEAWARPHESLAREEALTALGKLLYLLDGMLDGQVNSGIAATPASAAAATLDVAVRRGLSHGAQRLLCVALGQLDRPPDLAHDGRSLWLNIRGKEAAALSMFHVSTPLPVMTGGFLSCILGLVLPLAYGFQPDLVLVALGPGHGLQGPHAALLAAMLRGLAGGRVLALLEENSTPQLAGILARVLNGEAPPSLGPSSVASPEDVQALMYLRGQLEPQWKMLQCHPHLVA
# Chain of UniProt P49116 (whole entry, looked up): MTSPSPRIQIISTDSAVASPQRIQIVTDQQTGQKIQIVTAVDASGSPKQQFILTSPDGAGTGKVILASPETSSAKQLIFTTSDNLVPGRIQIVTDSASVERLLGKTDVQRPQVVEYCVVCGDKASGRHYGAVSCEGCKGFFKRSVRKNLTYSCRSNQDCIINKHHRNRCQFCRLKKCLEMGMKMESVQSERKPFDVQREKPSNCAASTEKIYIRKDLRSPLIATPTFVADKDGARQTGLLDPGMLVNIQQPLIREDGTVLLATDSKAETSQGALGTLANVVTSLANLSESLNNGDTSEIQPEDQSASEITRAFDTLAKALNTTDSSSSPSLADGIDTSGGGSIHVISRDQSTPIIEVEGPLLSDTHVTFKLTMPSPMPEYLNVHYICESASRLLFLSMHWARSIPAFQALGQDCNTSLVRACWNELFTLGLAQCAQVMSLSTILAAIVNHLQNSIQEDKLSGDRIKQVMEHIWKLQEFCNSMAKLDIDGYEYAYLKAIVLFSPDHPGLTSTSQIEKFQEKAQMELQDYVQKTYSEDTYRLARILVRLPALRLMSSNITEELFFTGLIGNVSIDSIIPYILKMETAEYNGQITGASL
# Chain of UniProt A0A0R4IM31 (whole entry, looked up): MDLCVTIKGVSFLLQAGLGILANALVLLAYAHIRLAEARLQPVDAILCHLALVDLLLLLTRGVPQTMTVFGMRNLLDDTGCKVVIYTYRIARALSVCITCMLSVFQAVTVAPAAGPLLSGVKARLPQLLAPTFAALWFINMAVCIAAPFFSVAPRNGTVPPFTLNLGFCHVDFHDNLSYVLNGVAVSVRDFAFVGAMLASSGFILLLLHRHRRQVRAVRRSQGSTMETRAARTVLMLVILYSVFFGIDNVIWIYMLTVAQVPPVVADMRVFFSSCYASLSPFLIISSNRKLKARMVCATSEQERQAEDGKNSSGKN
# Chain of UniProt P23921 (whole entry, looked up): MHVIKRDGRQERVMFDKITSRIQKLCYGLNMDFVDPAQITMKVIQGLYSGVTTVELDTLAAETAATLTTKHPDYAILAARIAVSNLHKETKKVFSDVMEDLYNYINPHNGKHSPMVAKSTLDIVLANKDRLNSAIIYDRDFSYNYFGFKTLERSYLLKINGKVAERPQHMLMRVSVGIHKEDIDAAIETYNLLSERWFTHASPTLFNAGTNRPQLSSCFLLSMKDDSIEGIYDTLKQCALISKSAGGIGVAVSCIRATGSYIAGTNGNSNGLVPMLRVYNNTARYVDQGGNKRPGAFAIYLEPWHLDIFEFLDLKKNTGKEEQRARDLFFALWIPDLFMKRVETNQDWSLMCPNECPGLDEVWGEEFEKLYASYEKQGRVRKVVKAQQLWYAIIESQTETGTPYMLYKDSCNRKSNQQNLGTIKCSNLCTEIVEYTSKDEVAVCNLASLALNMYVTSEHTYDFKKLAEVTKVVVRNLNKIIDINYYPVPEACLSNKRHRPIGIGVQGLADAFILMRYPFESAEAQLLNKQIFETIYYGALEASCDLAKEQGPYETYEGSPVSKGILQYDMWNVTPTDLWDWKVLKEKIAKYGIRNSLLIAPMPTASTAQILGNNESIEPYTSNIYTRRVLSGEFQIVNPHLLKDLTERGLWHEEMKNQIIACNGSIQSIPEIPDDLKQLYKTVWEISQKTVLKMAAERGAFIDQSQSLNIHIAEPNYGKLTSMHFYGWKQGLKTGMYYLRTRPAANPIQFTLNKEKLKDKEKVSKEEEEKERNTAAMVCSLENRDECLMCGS
# Chain of UniProt Q6W5P4 (whole entry, unmodified, looked up): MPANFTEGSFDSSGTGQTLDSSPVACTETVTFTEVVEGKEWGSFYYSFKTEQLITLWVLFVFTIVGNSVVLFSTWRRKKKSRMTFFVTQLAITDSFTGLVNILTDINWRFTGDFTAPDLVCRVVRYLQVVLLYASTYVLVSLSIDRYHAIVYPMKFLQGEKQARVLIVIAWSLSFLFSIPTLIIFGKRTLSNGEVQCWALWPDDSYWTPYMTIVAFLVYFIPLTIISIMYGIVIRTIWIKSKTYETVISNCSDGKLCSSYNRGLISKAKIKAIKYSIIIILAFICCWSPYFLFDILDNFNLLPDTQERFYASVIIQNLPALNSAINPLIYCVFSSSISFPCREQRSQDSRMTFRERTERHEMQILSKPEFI
# Chain of UniProt P08581 (whole entry, looked up): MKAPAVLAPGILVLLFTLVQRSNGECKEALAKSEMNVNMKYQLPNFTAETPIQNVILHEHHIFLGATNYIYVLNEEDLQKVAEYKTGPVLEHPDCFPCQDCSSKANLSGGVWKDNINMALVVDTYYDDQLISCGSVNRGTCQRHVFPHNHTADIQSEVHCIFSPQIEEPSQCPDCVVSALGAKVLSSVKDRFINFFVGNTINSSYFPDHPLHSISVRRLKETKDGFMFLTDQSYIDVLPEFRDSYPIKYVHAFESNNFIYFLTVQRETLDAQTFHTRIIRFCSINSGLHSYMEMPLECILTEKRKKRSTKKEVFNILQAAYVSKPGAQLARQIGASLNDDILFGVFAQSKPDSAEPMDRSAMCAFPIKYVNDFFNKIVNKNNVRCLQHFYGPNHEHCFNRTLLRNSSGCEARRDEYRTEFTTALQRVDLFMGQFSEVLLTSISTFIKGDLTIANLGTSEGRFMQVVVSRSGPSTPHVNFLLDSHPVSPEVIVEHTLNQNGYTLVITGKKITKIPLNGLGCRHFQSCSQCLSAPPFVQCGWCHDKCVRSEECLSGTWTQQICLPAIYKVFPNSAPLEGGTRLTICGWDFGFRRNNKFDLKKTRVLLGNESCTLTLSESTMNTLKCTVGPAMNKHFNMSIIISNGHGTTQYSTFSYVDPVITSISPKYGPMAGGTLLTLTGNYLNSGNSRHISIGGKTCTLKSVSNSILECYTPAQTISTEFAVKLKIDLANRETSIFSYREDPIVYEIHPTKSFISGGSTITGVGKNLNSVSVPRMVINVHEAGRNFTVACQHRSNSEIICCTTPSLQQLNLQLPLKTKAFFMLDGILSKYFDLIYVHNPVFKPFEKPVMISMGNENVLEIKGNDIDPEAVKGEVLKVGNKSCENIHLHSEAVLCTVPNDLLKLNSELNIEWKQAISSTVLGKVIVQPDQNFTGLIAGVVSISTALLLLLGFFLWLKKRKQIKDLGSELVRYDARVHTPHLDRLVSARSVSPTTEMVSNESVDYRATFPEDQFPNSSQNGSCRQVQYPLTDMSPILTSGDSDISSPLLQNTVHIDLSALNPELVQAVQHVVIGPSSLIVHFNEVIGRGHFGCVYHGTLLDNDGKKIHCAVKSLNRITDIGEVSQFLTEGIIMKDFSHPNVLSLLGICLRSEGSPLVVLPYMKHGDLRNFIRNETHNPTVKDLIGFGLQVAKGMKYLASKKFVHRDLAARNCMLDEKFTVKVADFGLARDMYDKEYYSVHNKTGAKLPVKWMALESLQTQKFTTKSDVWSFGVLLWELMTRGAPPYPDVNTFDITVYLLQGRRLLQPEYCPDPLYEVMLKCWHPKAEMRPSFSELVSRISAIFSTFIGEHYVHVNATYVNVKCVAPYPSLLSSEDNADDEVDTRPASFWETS
# Chain of UniProt P47900 (whole entry, looked up): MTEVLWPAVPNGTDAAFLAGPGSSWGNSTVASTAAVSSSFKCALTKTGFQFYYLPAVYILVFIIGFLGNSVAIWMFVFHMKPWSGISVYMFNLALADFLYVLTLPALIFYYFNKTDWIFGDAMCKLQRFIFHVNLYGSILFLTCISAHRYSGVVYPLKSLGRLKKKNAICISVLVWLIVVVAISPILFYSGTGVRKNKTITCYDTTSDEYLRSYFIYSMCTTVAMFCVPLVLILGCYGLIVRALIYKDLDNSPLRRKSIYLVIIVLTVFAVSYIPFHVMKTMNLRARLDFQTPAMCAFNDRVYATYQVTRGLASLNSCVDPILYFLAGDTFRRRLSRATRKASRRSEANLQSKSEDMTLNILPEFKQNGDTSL
# Chain of UniProt P29275 (whole entry, looked up): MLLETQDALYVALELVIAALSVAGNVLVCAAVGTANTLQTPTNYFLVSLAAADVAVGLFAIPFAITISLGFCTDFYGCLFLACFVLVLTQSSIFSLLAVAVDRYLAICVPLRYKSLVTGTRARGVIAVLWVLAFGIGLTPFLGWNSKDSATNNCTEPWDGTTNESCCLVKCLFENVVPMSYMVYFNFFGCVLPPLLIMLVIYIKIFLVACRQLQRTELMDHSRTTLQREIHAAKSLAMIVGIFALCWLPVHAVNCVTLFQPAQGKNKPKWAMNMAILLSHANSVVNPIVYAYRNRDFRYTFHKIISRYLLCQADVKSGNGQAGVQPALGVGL
Compound,target,test,test system,conditions,measurement,result
O=C(Nc1ncnc2c1ncn2[C@@H]1O[C@@H]2COP(=O)(O)OC2C1O)c1ccccc1 (stereo in doubt),PDE1C,"cyclic nucleotide hydrolysis, substrate or inhibitor, isothermal titration calorimetry",,,Km or Ki,323000 nM
Cn1cc(CNCC2CCN(c3ncc(C(=O)NO)cn3)CC2)c2ccccc21,"Polyamine deacetylase HDAC10 (HDAC10, Homo sapiens, UniProt Q969S8)","binding, TR-FRET",,,EC50,10 nM
CCn1nnc([C@H]2O[C@@H](n3cnc4c(NCc5cccc(I)c5)nc(Cl)nc43)[C@H](O)[C@@H]2O)n1,"Adenosine receptor A2b (ADORA2B, Homo sapiens, UniProt P29275)","adenylyl cyclase activation, agonist",,,EC50,834 nM
Nc1ncnc2c1ncn2[C@@H]1O[C@H](COP(=O)(O)OP(=O)(O)O)[C@@H](O)[C@H]1O,"P2Y purinoceptor 1 (P2RY1, Homo sapiens, UniProt P47900)","phospholipase C activation, agonist",1321N1,,EC50,660 nM
Nc1nc(Cl)nc2c1ncn2[C@@H]1O[C@H](COP(=O)(O)OP(=O)(O)O)[C@@H](O)[C@@H]1F,"Ribonucleoside-diphosphate reductase large subunit (Homo sapiens, UniProt P23921)",oligomerization,,,EC50,190 nM
CO[C@@H]1[C@@H]2OP(=O)(O)OC[C@H]2O[C@H]1n1c(Sc2ccc(Cl)cc2)nc2c(N)ncnc21,PDE1A,"cyclic nucleotide hydrolysis, substrate or inhibitor, isothermal titration calorimetry",,,Km or Ki,50500 nM
O=C(O)Cc1ccc(O)cc1,"Olfactory receptor class A-like protein 1 (Zebrafish, UniProt A0A0R4IM31)",agonist,Danio rerio,,EC50,2000 nM
CC1=C(/C=C/C(C)=C/C=C/C(C)=C/C(=O)O)C(C)(C)CCC1,"Nuclear receptor subfamily 2 group C member 2 (Homo sapiens, UniProt P49116)","receptor activation, agonist",,,EC50,23800 nM
CCCCCCC=O,"Olfactory receptor 226 (Olr226, Rattus norvegicus, UniProt P23270)",agonist,rat olfactory neurons expressing OR-I7,,EC50,12000 ± 3000 nM
CC1(C)C=Cc2c(ccc3c2OC[C@@H](c2ccc(O)cc2O)C3)O1,"GABA-A receptor, native",modulator,dorsal raphe neurons,high-efficacy site,EC50,700 nM
CC(C)C[C@H](N)C(=O)O,"GLUD1 (Homo sapiens, UniProt P00367, S501P)","enzyme activity, activator",,"mutant enzyme, reductive amination",EC50,610000 nM
CC(C)[C@H](NC(=O)CNC(=O)[C@H](CC(N)=O)NC(=O)[C@H](CCCNC(=N)N)NC(=O)[C@H](Cc1ccccc1)NC(=O)[C@@H](N)CO)C(N)=O,"Neuropeptide S receptor (NPSR1, Homo sapiens, UniProt Q6W5P4, N107I)","calcium mobilization, agonist",,receptor variant,EC50,0.7 ± 0.2 nM
C[C@@H](c1ccc2nccn2c1)n1nnc2ncc(-c3cnn(C)c3)nc21,"Hepatocyte growth factor receptor, phosphorylated (MET, Homo sapiens, UniProt P08581)",MET phosphorylation,"mouse, plasma",,EC50,1.1 nM
[Ca+2],cGMP-gated channel (rod),"shift in cGMP K1/2, modulator",,,EC50,~50 nM
O=c1ccn([C@H]2[C@H](O)[C@H](O)[C@@]3(COP(=O)(O)OP(=O)(O)O)C[C@H]23)c(=O)[nH]1,"P2Y purinoceptor 6 (P2RY6, Homo sapiens, UniProt Q15077)","PLC stimulation, agonist",1321N1 cells,,EC50,> 10000 nM

# Excerpt of the above:
Compound,target,test,test system,conditions,measurement,result
CC1(C)C=Cc2c(ccc3c2OC[C@@H](c2ccc(O)cc2O)C3)O1,"GABA-A receptor, native",modulator,dorsal raphe neurons,high-efficacy site,EC50,700 nM
